Experimental data of several laboratories.
A part holds a random share of what one study measured. Positions count from the first letter of the parent shown.

Series 1 — target: MAFK, bZIP domain (human); technique: DHFR protein complementation; sample: yeast; relative to: wild-type JUN-FOS pair; direction: higher = stronger binding
Notes: single substitutions, most at no-binding floor
Parent: JUN, bZIP domain (human); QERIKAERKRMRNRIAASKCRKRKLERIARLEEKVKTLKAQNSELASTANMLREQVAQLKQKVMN; partner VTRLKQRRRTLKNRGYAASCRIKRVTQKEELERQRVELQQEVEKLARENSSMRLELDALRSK
| Change | binding fitness |
| --- | --- |
| Q55G | -1.49 natural log |
| S43K | -1.48 natural log |
| T48V | -1.47 natural log |
| L31W | -1.5 natural log |
| E33R | -1.46 natural log |
| E44F | -1.46 natural log |
| A40F | -1.59 natural log |
| A40V | -1.36 natural log |
| T48R | -1.45 natural log |
| A57H | -1.5 natural log |
| E32N | -1.5 natural log |
| E54H | -1.62 natural log |
| E33G | -1.44 natural log |
| A49H | -1.37 natural log |
| E54P | -1.48 natural log |
| A49W | -1.44 natural log |
| A46I | -1.49 natural log |
| V35E | -1.55 natural log |
| K34M | -1.57 natural log |
| R30I | -1.17 natural log |

Series 2 — technique: aptamer microarray, sandwich; form: DNA with 2'F-ANA; sample: in vitro; tested at: 200 nM; with: Cy3 exosite-II aptamer, 400 nM; direction: higher = stronger binding; sequence: GGTTGGTGTGGTTGG
Target: Prothrombin, mature alpha-thrombin (F2, Homo sapiens, UniProt P00734)
Notes: whole 15-mer aptamer, many near background
| Modification | mean fluorescence intensity |
| --- | --- |
| 2'F-ANA at 1 2 3 4 7 8 9 10 13 | 55.3 a.u. |
| 2'F-ANA at 2 3 4 10 12 13 14 | 200 a.u. |
| 2'F-ANA at 1 2 4 9 11 12 13 14 | 51 a.u. |
| 2'F-ANA at 6 7 9 10 14 | 110 a.u. |
| 2'F-ANA at 4 6 8 14 15 | 94.3 a.u. |
| 2'F-ANA at 4 7 8 10 11 12 13 14 15 | 66.6 a.u. |
| 2'F-ANA at 2 3 6 7 8 9 11 13 15 | 534 a.u. |
| 2'F-ANA at 1 2 3 4 7 8 9 10 13 14 | 48.8 a.u. |
| 2'F-ANA at 5 6 | 142 a.u. |
| 2'F-ANA at 8 11 12 13 14 15 | 334 a.u. |
| 2'F-ANA at 3 5 8 9 | 138 a.u. |
| 2'F-ANA at 3 6 8 9 10 | 536 a.u. |
| 2'F-ANA at 1 4 5 6 11 13 14 | 43.4 a.u. |
| 2'F-ANA at 1 4 5 6 8 10 14 15 | 50.2 a.u. |
| 2'F-ANA at 1 9 11 13 15 | 131 a.u. |
| 2'F-ANA at 1 7 8 12 15 | 513 a.u. |
| 2'F-ANA at 2 3 5 6 7 9 11 13 | 65.3 a.u. |
| 2'F-ANA at 1 2 3 8 9 12 13 15 | 409 a.u. |
| 2'F-ANA at 1 2 4 7 9 12 13 | 170 a.u. |
| 2'F-ANA at 1 2 3 5 11 12 | 97 a.u. |
| 2'F-ANA at 7 8 10 13 14 15 | 135 a.u. |

Series 3 — technique: DHFR PCA, deep sequencing; sample: yeast; with: (+)-ABA 1.4 µM; relative to: wild-type fitted maximum; direction: higher = stronger binding
Target: ABI1, truncated, D143A, DHFR fusion (Arabidopsis thaliana)
Notes: methotrexate growth selection, single substitutions
Parent: PYL1, truncated, DHFR fusion (Arabidopsis thaliana); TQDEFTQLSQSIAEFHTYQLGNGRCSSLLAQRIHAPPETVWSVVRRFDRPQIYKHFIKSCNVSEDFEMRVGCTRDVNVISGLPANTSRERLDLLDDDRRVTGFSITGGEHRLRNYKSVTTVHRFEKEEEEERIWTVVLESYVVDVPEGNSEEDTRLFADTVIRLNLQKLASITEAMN; partner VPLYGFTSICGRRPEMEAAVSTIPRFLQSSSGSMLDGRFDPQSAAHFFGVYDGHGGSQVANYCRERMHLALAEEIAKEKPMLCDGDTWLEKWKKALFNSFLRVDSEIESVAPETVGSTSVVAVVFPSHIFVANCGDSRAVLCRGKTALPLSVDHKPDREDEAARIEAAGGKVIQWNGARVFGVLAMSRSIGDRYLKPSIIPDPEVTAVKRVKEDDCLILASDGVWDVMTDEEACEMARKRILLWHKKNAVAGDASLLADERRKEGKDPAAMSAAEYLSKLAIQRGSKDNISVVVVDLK
| Change | relative binding score |
| --- | --- |
| N114D | 10.1% |
| D95C | 5.36% |
| D95Q | 9.45% |
| E152T | 32.3% |
| V62K | -12.7% |
| C25N | -31.7% |
| I52E | 44.6% |
| L93M | 53.4% |
| G23N | 54.2% |
| E64G | 45% |
| E130P | 92.4% |
| S150K | 3.34% |
| V44I | 38.3% |
| P146Q | 18.6% |
| E128W | 31.6% |
| V161F | 36.1% |
| V121Q | -9.88% |
| R132D | 91.2% |
| T39H | 38.9% |
| E38K | 16.1% |
| W41I | -23.7% |
| R123G | 79.7% |
| V62I | 38.6% |
| G107V | 1.84% |

Series 4 — target: CCNB2, cyclin fold, Cln2 fusion (human); technique: yeast growth competition, sequencing; sample: yeast; notes: weak parent motif; relative to: not given; direction: higher = stronger binding
Parent: WEE1 docking peptide (human); HKTFRKLRLFDTP; partner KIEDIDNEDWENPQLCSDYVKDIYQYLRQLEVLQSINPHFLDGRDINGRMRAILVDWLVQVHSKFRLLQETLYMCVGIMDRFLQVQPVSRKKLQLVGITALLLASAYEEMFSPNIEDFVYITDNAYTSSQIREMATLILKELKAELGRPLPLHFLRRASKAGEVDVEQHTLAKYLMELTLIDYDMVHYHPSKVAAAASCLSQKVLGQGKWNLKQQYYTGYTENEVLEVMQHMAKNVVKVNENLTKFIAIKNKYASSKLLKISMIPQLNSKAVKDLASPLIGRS
| Change | normalised enrichment score |
| --- | --- |
| L9E | 0.837 |
| R5W | 0.503 |
| F10V | 0.373 |
| F4Y | 0.37 |
| T12E | 0.651 |
| H1F | -0.173 |
| T12W | 0.417 |
| K6T | 0.688 |
| R5D | 0.266 |
| T3L | -0.148 |
| F4T | 0.831 |
| P13N | 1.08 |
| K6Y | 0.479 |
| R5H | 0.982 |
| R8K | 0.898 |
| K2Y | -0.181 |
| F4M | 0.951 |
| K6S | 0.152 |
| L7P | 0.555 |
| F10C | 0.489 |

Series 5 — technique: universal PBM; form: double-stranded DNA, one strand shown; sample: in vitro; tested at: 600 nM; direction: higher = stronger binding
Target: Sal-like protein 4, full length isoform A (SALL4, Homo sapiens, UniProt Q9UJQ4, residues 1-1053)
UniProt Q9UJQ4, sequence (whole entry, looked up): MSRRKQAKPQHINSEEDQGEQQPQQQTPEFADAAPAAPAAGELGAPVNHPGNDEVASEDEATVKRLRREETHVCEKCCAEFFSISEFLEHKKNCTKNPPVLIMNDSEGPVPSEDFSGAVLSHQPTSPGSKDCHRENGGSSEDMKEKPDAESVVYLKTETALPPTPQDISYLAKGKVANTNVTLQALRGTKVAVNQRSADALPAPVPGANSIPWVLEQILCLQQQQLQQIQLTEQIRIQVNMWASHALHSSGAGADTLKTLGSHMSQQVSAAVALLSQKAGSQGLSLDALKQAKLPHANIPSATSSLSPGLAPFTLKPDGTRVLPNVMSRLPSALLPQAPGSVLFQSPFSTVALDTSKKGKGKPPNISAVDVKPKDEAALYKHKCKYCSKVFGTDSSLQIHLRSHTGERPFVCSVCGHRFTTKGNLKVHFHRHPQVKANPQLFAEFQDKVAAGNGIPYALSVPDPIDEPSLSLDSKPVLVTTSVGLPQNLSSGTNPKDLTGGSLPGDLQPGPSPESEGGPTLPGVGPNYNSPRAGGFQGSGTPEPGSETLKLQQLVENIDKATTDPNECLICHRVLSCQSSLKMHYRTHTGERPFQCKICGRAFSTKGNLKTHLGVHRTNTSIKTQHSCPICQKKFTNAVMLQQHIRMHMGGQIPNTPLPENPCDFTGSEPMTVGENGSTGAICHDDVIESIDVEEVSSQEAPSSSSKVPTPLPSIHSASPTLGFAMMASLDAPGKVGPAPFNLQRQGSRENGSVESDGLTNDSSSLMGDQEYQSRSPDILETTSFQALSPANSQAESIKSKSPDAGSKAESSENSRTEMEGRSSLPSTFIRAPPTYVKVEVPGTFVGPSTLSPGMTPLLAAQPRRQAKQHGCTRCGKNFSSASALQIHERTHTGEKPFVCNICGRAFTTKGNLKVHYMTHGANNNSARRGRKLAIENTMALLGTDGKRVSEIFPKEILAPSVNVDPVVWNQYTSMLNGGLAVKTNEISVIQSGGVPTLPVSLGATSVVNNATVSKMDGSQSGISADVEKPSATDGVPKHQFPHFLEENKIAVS
Notes: 8-mer, flanks averaged, mean of replicates
| Sequence | E-score |
| --- | --- |
| GGCAAGGA | -0.0332 |
| AGTTGTCA | 0.0674 |
| AAGAACCC | -0.251 |
| AAATGCCA | 0.0645 |
| CGACATAG | -0.0387 |
| AGTCAGTC | -0.177 |
| AAGTGCGT | -0.105 |
| CCTTTGAA | 0.0361 |
| CGTAAATA | 0.294 |
| GACAGTGC | -0.12 |
| GACGTCTA | -0.0948 |
| GGCTGGAC | -0.327 |
| GGGTTAAA | -0.0691 |
| AGGGAGTG | -0.232 |
| AACACCTC | -0.0839 |
| AAATTCTA | 0.232 |
| CGCTCCAC | -0.187 |
| CAAGAGAC | -0.137 |
| ATGCACAT | 0.235 |
| CATACTGG | -0.0302 |
| CCTGATCA | -0.00603 |
| CGGGGAGC | -0.344 |
| GCGCCTAA | -0.164 |
| CGCCTATA | 0.0138 |
| AGCTTTTA | 0.0548 |

Series 6 — technique: protein binding microarray; form: double-stranded DNA, one strand shown; sample: in vitro; tested at: not given; relative to: not given; direction: higher = stronger binding
Target: Histone acetyltransferase KAT6A, both winged helices, GST fusion (KAT6A, Homo sapiens, UniProt Q92794, residues 1-181)
Notes: 8-mer, flanks averaged, mean of 2 arrays, mostly near background
Residues (chain): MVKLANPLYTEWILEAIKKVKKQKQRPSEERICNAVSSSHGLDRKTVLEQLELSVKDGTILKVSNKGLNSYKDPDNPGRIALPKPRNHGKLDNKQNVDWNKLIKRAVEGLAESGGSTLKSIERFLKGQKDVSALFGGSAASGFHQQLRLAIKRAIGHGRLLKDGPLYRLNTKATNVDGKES
| Sequence | E-score |
| --- | --- |
| ACCACTAG | -0.169 |
| AAGTCTTA | -0.119 |
| ACTGATCT | -0.0723 |
| AAGAGCGC | 0.22 |
| GGCCTGTA | 0.0661 |
| AGGCGGCG | 0.308 |
| CCTGAAAA | -0.0636 |
| ATAACACC | -0.014 |
| TCGTTAGA | -0.115 |
| CCAGTTCC | -0.0104 |
| CAGGATTC | -0.158 |
| ACCTTCAT | -0.0554 |
| GCCTTACC | -0.0528 |
| CAATTACC | -0.0562 |
| GATAGGCA | -0.21 |
| GTTGGGCA | -0.0466 |
| CTATTGAA | -0.081 |
| GGATCACC | -0.0801 |
| AGAATACT | -0.196 |
| AGGGGCTA | -0.242 |
| AATAGTCT | -0.148 |
